# Experimental data of several laboratories.
# Each numbered part is a random draw from the data of one study; scales do not carry over between parts. Changes are numbered by the printed parent chain.
# UniProt Q9SKN5, sequence (whole entry, looked up): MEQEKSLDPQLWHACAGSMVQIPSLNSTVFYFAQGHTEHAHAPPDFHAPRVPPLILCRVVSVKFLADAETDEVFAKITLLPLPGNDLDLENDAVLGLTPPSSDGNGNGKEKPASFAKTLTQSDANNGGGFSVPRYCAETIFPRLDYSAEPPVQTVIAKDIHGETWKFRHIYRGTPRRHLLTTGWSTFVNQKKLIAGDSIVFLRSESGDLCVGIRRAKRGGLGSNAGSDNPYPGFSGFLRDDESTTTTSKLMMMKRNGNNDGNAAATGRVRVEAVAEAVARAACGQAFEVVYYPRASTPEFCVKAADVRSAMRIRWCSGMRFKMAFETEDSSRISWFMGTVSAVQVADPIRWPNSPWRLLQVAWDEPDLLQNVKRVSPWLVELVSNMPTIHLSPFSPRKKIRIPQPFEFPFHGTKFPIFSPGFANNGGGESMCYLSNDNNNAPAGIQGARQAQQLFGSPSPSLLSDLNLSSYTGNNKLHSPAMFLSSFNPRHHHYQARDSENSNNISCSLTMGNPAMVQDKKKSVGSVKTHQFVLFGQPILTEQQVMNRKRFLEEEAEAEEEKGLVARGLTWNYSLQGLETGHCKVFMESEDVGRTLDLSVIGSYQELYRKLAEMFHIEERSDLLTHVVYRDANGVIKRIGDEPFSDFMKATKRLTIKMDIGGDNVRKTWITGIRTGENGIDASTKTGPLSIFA
# UniProt Q9XID4, sequence (whole entry, looked up): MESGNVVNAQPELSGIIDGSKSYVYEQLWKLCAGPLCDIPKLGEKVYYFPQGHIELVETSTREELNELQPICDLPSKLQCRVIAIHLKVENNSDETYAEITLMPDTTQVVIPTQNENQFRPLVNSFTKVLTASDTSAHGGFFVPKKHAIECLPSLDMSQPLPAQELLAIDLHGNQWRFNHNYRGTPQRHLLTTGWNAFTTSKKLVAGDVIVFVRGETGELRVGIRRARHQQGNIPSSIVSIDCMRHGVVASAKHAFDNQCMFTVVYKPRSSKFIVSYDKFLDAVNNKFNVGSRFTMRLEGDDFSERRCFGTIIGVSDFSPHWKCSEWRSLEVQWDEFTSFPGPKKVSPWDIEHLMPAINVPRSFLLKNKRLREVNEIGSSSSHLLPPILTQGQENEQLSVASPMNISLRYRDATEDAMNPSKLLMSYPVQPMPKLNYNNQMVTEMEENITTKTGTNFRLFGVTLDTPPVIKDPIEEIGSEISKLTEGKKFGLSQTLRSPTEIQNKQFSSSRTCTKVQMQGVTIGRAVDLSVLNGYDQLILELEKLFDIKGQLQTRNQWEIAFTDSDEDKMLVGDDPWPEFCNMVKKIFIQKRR
# UniProt Q9ZPY6, sequence (whole entry, looked up): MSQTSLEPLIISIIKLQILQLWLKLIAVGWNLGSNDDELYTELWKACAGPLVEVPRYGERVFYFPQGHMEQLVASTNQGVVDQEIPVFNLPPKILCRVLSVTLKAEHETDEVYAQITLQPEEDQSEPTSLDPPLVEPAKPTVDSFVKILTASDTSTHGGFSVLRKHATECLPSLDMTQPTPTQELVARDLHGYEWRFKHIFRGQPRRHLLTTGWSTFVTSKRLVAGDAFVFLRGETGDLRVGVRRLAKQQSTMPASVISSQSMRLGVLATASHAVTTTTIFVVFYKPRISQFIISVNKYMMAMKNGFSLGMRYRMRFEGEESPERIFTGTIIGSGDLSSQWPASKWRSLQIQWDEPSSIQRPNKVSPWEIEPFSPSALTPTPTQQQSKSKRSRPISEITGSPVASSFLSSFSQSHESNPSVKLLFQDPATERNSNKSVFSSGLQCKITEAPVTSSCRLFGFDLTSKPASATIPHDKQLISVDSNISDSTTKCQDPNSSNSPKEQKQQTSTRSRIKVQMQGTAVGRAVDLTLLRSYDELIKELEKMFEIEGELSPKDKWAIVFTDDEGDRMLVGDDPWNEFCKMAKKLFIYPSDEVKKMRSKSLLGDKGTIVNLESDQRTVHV
# UniProt Q9C5X0, sequence (whole entry, looked up): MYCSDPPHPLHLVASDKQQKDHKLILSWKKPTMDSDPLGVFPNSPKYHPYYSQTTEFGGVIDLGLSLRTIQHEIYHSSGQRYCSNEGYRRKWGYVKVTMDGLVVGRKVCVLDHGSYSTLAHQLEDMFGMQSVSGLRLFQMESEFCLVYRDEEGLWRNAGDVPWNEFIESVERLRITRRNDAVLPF

# Set 1 — method: protein binding microarray; molecule type: double-stranded DNA, one strand shown; medium: in vitro; tested at: not given; reference: not given; reading: higher = stronger binding
# Target: Histone acetyltransferase KAT6A, winged helix 2, GST fusion (KAT6A, Homo sapiens, UniProt Q92794, residues 85-181)
# Notes: 8-mer, flanks averaged, mean of 2 arrays, mostly near background
# Residues (chain): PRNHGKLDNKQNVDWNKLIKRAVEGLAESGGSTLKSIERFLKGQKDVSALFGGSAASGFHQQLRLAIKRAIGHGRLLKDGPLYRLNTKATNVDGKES
Strand,E-score
CCCTATTA,-0.0504
CTCACATA,-0.18
CTATCTTA,-0.069
CTAACAAC,0.0794
AAGCTGGG,0.0144
AATGCAAT,-0.198
AGTTCCGG,0.023
CTATGGAG,-0.18
ACCTGGTG,-1e-05
AATGTAGT,-0.203
AACTCTAG,-0.273
ATTGCAGA,0.0626
GGGCCAGA,0.14
ACAACTTC,-0.0449
AACAGTGG,-0.0556
CAAGTACG,-0.213
AAGTCTAT,-0.214
CCCGATTA,0.0827
ATCAAACA,0.121
CGATCACG,0.104

# Set 2 — Molecule: B1 (IAA11); method: two-hybrid; notes: weak activation fusion; reading: higher = firmer interaction
# B1: IAA11 (Arabidopsis thaliana, UniProt Q38829); chain MEGGSASGSASALSNDENLVVSCEDSSSPIGNELELGLTLSLGRKGYRDCRVYADDSSSSSSSSSLSRASVIAGIKRTADSMAATSGQVVGWPPIRTYRMNSMVNQAKASATEDPNLEISQAVNKNRSDSTKMRNSMFVKVTMDGIPIGRKIDLNAHKCYESLSNTLEEMFLKPKLGSRTLETDGHMETPVKILPDGSSGLVLTYEDKEGDWMLVGDVPWGMFIGSVRRLRIMKTSEATGKAQMIL
partner,reference,positive tests
"ARF11 500-622 (Arabidopsis thaliana, UniProt Q9ZPY6)",out of 2 tests,0
"IAA34 (Arabidopsis thaliana, UniProt Q9C5X0)",out of 4 tests,1
"ARF12 500-593 (Arabidopsis thaliana, UniProt Q9XID4)",out of 4 tests,0
"ARF10 575-693 (Arabidopsis thaliana, UniProt Q9SKN5)",out of 4 tests,0

# Set 3 — method: Sort-seq; refers to: YFP reporter; medium: E. coli; notes: PhoQ-PhoP variant library; together with: 10 µM Mg2+; reference: high Mg2+ state; reading: higher = stronger signaling
# Molecule: PhoQ, residues 284 288 289 292 302 303 TGYLSA
target,fold induction
"PhoP, residues 12 14 15 18 19 TPWTL (Escherichia coli, UniProt P23836)",14.9
"PhoP, residues 12 14 15 18 19 LHHYF (Escherichia coli, UniProt P23836)",37
"PhoP, residues 12 14 15 18 19 VGHWL (Escherichia coli, UniProt P23836)",4.12

# Set 4 — method: DHFR PCA, deep sequencing; medium: yeast; together with: (+)-ABA 2500 µM; reference: wild-type fitted maximum; reading: higher = stronger binding
# Target: ABI1, truncated, D143A, DHFR fusion (Arabidopsis thaliana)
# Notes: methotrexate growth selection, single substitutions
# Parent: PYL1, truncated, DHFR fusion (Arabidopsis thaliana); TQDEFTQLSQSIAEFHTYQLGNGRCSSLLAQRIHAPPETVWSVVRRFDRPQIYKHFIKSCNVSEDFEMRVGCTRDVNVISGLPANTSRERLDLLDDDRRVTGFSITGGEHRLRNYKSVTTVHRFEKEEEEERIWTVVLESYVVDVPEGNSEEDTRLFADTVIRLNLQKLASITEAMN
Change,relative binding score
T106Y,108%
R123W,93.5%
W134C,102%
Y141K,-14.5%
I12R,95.5%
G71Q,81.1%
H122E,97.3%
S59P,56.5%
Y115T,8.93%
S59Y,90.6%
V40L,48.1%
M68L,96.6%
T101N,68.3%
H110M,83.6%
D75A,94.5%
K116A,101%
T1F,97.8%
D95I,86.6%
G102M,89.2%

# Set 5 — method: RNA Bind-n-Seq; molecule type: RNA; medium: in vitro; tested at: 365 nM; reference: no-protein control; reading: higher = stronger binding
# Target: RNA binding protein fox-1 homolog 2, RRM domain, GST-SBP tag (RBFOX2, Homo sapiens, UniProt O43251-10, residues 100-194)
# Notes: natural RNA segment, single round, ends assumed
Strand,RBNS enrichment (R)
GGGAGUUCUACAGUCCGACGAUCGGUUAUUUCUGCAUGGAAACUCAACUUCUUGGAUUAGCCGUCCCAGUGAAAAUCCUCAUUGUUGGAGUGUAAACCAAAUACGAAGCCCUCUUGCAAAGUAGCCUCUUUCAUGGAAUUCUCGGGUGCCAA,0.594
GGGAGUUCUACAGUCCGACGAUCGGAGCUGCUGUCAGUGCUGAGGGCGCCUGAGUGAACAGCUGCUGGGCUCAGCCCUCUAGAGCGCCUGUGGAGGCAGUUUCCAGGCAGUAAUGGAGUCCCCACCACCGCUUUGGAAUUCUCGGGUGCCAA,0.554
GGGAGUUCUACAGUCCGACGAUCAAUGCAAAGAUCUUGCCCCUGCCAGUGGCAAGUGCCGACAAACCAAGUGCCUGUAGGCUCCUGGGACUCUGCAGCUAGGUAAAGAGUUCUAAGUUCAUCUGGCCCACGUGUGGAAUUCUCGGGUGCCAA,0.773
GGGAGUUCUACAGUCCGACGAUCUAAAUUUUAAAUGGAAUAUUUUAAACUGAUACAGUGGUGUAUGUGUGUGUAUAUGUAAUUUUCUUAAUGUCUUAAGAAAUCUGGCUAUAUAAGUUCCACUGUACAAUGUCUGGAAUUCUCGGGUGCCAA,1.44
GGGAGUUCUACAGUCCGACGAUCUCCCUCUGCUGCCGCCUCUGUCUGGAAAUUGGACCAGAAUUCUGAUGUCCCUCCAGCCUCCUCCCCCUCCUCUGCUGGCUCUGGCAACAGAUCCUGGGAUAUGGUAAUUGUGGAAUUCUCGGGUGCCAA,0.731
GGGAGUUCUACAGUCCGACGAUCCUUCUUAAAGCCCAGAGAAAGAGGUUUUUUAAAAGACUGUCGCCAAAUAGCUGAGCCAAAAGGCUGAUCAGAAUUCACUUUUUGGAAUGUGGCAGUUAAACACUACCUUGUGGAAUUCUCGGGUGCCAA,0.429
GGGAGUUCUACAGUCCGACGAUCAUACACACACGCACAUACUCCUGCACAUGUUCCCAUGCAUGUGUGUGCACUCGGACCGAGCAUCUCCCACGCACCUCUACCCCACCCCAAGCACCUCUCUCCCCCCAUGCUGGAAUUCUCGGGUGCCAA,2.83
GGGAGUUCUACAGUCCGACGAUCCAGCCUGUCGUGUCUCUUUGGACAGACGGACCAUCAGUGUAGAUAAUCAGCAUGCUUGUGCAUUACGUGGAGGUUGGAGGUGUCAUCUUUGUUGGGAUGACUGAUUGGGGUGGAAUUCUCGGGUGCCAA,23.1

# Set 6 — target: CCND2, cyclin fold, Cln2 fusion (human); method: yeast growth competition, sequencing; medium: yeast; notes: weak parent motif; reference: not given; reading: higher = stronger binding
# Parent: PLK5 docking peptide (human); IFRKVGQRLLTQC; partner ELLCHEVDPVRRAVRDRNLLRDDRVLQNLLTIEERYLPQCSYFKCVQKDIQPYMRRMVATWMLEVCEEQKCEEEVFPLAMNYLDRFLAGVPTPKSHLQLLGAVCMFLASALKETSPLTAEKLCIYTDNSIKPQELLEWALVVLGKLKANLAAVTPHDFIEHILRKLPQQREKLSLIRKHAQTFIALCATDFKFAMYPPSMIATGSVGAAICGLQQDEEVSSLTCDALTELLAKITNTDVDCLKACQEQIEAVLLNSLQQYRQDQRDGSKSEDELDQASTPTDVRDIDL
Change,normalised enrichment score
IFRKVAQRLLTQC [G6A],-0.376
IFRKVGQRLATQC [L10A],-0.608
IFRAVGQRLLTQC [K4A],-0.388
IFAKVGQRLLTQC [R3A],-0.245
IFRKVGQRLLTAC [Q12A],-0.216
IFRKVGARLLTQC [Q7A],-0.198
IFRKVGQALLTQC [R8A],-0.351

# For quick reference, copied from above (set 6):
Change,normalised enrichment score
IFRKVGQRLATQC [L10A],-0.608
IFRAVGQRLLTQC [K4A],-0.388
IFAKVGQRLLTQC [R3A],-0.245
IFRKVGQRLLTAC [Q12A],-0.216
IFRKVGARLLTQC [Q7A],-0.198
IFRKVGQALLTQC [R8A],-0.351
